Assay results pooled from the literature.
Every numbered part comes from another study and shows a few of its results, in no order.
Sequence of UniProt Q05655 (whole entry, looked up): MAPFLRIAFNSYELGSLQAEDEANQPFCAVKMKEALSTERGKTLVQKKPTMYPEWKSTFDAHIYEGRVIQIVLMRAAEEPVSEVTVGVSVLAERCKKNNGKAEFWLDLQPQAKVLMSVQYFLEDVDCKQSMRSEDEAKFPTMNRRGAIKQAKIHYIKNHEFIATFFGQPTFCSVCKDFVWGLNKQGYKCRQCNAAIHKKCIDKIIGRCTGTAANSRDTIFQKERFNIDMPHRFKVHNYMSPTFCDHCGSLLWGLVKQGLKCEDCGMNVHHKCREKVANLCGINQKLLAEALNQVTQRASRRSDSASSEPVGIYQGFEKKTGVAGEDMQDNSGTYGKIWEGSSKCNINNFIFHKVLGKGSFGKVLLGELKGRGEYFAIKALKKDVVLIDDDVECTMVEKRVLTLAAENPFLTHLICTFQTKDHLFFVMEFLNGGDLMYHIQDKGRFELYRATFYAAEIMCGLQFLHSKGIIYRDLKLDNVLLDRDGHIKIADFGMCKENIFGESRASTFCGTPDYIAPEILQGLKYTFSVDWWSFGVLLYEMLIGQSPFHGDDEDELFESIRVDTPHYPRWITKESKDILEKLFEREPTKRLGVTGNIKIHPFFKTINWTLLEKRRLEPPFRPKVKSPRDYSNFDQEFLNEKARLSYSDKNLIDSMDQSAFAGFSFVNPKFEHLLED
Sequence of UniProt Q16620 (whole entry, looked up): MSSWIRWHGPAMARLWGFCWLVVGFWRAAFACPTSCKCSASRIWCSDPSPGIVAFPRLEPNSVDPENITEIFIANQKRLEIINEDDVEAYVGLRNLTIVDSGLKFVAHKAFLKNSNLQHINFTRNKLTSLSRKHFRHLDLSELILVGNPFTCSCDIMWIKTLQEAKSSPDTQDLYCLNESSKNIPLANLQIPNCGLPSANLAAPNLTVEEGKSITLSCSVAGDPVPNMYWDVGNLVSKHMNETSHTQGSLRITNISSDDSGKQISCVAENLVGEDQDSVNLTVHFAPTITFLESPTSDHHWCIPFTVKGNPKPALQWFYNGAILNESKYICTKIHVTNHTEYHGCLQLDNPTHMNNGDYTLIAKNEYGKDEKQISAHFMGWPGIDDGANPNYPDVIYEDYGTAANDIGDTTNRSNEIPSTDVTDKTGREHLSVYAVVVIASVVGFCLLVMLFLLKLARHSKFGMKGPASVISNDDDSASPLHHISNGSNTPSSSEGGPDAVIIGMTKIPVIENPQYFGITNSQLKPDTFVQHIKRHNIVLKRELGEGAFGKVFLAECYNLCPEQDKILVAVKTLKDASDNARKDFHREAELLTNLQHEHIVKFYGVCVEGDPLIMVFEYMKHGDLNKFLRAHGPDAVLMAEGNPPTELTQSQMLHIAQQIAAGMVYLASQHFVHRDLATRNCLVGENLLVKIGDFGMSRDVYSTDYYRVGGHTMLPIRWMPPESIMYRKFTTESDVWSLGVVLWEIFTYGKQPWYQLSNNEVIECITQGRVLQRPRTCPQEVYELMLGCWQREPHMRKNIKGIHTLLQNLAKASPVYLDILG
Sequence of UniProt P36507 (whole entry, looked up): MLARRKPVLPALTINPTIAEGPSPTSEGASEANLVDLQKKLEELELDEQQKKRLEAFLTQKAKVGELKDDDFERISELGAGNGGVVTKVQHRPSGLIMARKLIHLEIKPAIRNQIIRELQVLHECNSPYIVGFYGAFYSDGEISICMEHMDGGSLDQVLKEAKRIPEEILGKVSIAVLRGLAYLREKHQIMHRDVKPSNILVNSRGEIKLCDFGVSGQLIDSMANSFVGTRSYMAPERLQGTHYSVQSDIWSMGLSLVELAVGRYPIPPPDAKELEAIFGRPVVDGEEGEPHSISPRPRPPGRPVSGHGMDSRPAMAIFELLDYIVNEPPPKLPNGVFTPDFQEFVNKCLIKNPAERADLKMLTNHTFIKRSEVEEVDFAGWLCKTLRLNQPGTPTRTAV
Sequence of UniProt Q86Z02 (whole entry, looked up): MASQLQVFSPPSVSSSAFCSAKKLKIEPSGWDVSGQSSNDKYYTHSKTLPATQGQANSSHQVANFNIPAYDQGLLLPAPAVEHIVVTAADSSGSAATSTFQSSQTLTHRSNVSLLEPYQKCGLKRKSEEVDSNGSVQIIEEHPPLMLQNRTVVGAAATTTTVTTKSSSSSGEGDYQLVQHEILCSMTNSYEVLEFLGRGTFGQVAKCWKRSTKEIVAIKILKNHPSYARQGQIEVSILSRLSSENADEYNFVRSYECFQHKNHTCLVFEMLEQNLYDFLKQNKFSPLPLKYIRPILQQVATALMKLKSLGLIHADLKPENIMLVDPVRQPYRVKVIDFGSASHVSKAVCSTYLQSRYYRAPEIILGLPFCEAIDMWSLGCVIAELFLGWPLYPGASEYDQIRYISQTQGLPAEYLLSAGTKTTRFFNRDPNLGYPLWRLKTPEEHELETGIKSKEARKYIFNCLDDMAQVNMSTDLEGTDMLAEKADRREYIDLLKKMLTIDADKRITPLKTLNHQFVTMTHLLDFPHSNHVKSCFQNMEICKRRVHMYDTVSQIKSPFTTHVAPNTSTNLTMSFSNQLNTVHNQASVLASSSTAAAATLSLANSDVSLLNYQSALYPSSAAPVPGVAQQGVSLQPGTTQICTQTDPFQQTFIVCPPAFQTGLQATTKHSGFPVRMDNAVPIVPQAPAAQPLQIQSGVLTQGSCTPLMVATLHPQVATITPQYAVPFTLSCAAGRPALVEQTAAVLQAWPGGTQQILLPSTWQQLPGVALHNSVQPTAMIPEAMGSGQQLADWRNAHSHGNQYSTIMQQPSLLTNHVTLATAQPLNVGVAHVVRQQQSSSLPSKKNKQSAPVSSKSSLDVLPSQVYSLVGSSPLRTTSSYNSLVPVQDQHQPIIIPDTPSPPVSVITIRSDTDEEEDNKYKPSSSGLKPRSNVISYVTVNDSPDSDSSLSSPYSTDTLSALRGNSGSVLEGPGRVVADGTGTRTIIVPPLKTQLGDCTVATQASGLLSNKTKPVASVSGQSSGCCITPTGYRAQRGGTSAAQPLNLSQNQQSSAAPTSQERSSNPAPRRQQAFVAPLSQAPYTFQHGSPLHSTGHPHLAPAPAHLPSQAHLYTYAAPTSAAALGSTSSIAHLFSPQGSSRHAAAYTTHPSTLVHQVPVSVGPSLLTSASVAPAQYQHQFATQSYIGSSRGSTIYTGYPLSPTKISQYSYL
Sequence of UniProt Q6ZWH5 (whole entry, looked up): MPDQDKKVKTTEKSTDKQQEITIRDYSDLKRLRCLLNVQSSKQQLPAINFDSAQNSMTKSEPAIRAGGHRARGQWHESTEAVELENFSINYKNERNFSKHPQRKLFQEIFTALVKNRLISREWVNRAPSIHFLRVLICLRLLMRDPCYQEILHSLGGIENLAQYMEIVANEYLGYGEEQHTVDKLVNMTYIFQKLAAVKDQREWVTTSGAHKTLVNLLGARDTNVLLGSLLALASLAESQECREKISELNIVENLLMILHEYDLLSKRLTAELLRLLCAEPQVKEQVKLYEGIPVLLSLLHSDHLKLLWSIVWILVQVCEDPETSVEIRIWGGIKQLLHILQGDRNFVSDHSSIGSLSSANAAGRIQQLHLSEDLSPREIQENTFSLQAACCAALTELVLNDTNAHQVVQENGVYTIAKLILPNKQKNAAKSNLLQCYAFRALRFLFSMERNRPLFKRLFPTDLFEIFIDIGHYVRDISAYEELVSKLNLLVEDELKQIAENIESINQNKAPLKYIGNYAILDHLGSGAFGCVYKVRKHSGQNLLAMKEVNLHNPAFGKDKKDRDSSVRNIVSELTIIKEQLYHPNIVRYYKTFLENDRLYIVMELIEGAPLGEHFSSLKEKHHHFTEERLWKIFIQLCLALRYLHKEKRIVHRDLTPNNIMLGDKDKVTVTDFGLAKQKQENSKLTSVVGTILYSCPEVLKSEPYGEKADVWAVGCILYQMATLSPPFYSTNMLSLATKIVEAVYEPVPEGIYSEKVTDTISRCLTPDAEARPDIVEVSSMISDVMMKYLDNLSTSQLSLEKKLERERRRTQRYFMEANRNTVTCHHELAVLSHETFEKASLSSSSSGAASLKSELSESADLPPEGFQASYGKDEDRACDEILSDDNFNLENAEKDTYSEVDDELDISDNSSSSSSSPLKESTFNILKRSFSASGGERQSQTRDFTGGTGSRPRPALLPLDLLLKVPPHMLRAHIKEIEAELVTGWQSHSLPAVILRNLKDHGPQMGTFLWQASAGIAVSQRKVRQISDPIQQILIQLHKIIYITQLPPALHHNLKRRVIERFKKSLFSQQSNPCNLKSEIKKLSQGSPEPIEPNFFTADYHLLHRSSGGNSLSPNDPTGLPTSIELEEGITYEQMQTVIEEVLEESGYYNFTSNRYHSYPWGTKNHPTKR
Sequence of UniProt P51812 (whole entry, looked up): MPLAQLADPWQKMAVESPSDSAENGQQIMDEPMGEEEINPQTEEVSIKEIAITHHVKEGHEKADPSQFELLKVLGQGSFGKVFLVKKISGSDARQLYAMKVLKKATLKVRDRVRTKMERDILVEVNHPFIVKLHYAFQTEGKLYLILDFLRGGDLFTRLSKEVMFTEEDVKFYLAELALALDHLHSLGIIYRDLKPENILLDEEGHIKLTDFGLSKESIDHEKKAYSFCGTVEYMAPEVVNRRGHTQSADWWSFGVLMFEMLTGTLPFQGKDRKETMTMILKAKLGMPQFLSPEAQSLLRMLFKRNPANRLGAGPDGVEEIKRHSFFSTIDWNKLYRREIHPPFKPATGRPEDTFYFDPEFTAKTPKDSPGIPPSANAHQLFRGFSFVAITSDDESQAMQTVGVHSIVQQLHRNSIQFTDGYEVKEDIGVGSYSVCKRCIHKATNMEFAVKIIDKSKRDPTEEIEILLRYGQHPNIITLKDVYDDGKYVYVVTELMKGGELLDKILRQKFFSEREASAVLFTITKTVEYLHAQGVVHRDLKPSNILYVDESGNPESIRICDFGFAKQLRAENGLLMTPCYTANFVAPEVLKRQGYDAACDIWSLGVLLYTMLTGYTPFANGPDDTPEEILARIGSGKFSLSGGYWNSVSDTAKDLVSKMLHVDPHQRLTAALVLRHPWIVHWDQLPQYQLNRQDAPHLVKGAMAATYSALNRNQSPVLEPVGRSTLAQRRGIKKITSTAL

Series 1 — mode: inhibitor; concentration: 10 µM; baseline: control; endpoint: remaining activity
Target: Diamine acetyltransferase 1 (Homo sapiens, UniProt P21673)
Target sequence (P21673 1-171): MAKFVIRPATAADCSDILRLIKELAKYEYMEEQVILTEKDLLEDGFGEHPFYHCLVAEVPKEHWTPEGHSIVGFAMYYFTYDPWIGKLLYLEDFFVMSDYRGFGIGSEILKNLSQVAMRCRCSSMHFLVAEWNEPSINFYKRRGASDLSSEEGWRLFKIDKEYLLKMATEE
COc1ccc(-c2cc(=O)c3c(OC)c(OC)c(OC)c(OC)c3o2)cc1O: 77.4%
O=C(CCCCCCCCc1ccc(O)c(O)c1)c1c(O)cccc1O: 121%
C=C(C)[C@@H]1CC[C@]2(C)CC[C@]3(C)[C@H](CC[C@@H]4[C@@]5(C)CCC(=O)C(C)(C)[C@@H]5CC[C@]43C)[C@@H]12: 83.3%
O=c1cc(-c2ccc(O)cc2)oc2c([C@@H]3O[C@H](CO)[C@@H](O)[C@H](O)[C@H]3O)c(O)c([C@@H]3O[C@H](CO)[C@@H](O)[C@H](O)[C@H]3O)c(O)c12: 119%
CC(=O)c1ccc[nH]1: 85.2%
O=c1ccoc2cc(O)cc(O)c12: 82.2%

Series 2 — Compound: NC(N)=NC(=O)c1nc(Cl)c(N2CCCCCC2)nc1N; mode: agonist; concentration: 10 µM; baseline: untreated; endpoint: fold over basal
Neuropeptide Y receptor type 5 (NPY5R, Homo sapiens, UniProt Q15761); PRESTO-Tango arrestin recruitment: 11.9
Prolactin-releasing peptide receptor (PRLHR, Homo sapiens, UniProt P49683); β-arrestin recruitment, PRESTO-Tango: 0.85
G-protein coupled receptor 55 (GPR55, Homo sapiens, UniProt Q9Y2T6); β-arrestin recruitment, PRESTO-Tango: 1.35
Secretin receptor (SCTR, Homo sapiens, UniProt P47872); β-arrestin recruitment, PRESTO-Tango: 0.72
GPR32 (Homo sapiens, UniProt O75388); β-arrestin recruitment, PRESTO-Tango: 1.48

Series 3 — effect on: enzyme activity; mode: inhibitor; concentration: 1 µM; endpoint: activity vs control
SMILES: CC(C)S(=O)(=O)c1ccc2nccc(Nc3ccc4sc(C5CCCC5)nc4c3)c2c1
Vascular endothelial growth factor receptor 3 (FLT4, Homo sapiens, UniProt P35916): 88.5%
Protein-tyrosine kinase 2-beta (PTK2B, Homo sapiens, UniProt Q14289): 106%
Serine/threonine-protein kinase 10 (STK10, Homo sapiens, UniProt O94804): 99%
Testis-specific serine/threonine-protein kinase 4 (TSSK4, Homo sapiens, UniProt Q6SA08): 93%
Calcium/calmodulin-dependent protein kinase type IV (CAMK4, Homo sapiens, UniProt Q16566): 100%

Series 4 — effect on: cell-free assay; technique: competition with immobilised ligand; concentration: 1 µM; endpoint: remaining binding
SMILES: C[C@@H]1CN(c2cc(-c3nn(C)c4ccc(OC5(C)CC5)cc34)ncn2)C[C@H](C)O1
Serine/threonine-protein kinase Nek11 (NEK11, Homo sapiens, UniProt Q8NG66): 58%
Serine/threonine-protein kinase Nek10 (NEK10, Homo sapiens, UniProt Q6ZWH5): 89%
Serine/threonine-protein kinase PAK 2 (PAK2, Homo sapiens, UniProt Q13177): 90%
Homeodomain-interacting protein kinase 1 (HIPK1, Homo sapiens, UniProt Q86Z02): 85%
Phosphatidylinositol 4,5-bisphosphate 3-kinase catalytic subunit delta isoform (PIK3CD, Homo sapiens, UniProt O00329): 97%
Epithelial discoidin domain-containing receptor 1 (DDR1, Homo sapiens, UniProt Q08345): 68%
Non-receptor tyrosine-protein kinase TNK1 (TNK1, Homo sapiens, UniProt Q13470): 95%
Mast/stem cell growth factor receptor Kit (KIT, Homo sapiens, UniProt P10721, T670I/V559D): 100%
Protein kinase C delta type (PRKCD, Homo sapiens, UniProt Q05655): 100%
Fibroblast growth factor receptor 2 (FGFR2, Homo sapiens, UniProt P21802): 100%
Calcium/calmodulin-dependent protein kinase type II subunit alpha (CAMK2A, Homo sapiens, UniProt Q9UQM7): 98%
Receptor-interacting serine/threonine-protein kinase 1 (RIPK1, Homo sapiens, UniProt Q13546): 98%
Dual specificity mitogen-activated protein kinase kinase 2 (MAP2K2, Homo sapiens, UniProt P36507): 73%
Ribosomal protein S6 kinase alpha-3, N-terminal kinase domain (RPS6KA3, Homo sapiens, UniProt P51812): 82%
BDNF/NT-3 growth factors receptor (NTRK2, Homo sapiens, UniProt Q16620): 65%
Ephrin type-B receptor 1 (EPHB1, Homo sapiens, UniProt P54762): 99%

Excerpt of the above (series 4):
Fibroblast growth factor receptor 2 (FGFR2, Homo sapiens, UniProt P21802): 100%
Calcium/calmodulin-dependent protein kinase type II subunit alpha (CAMK2A, Homo sapiens, UniProt Q9UQM7): 98%
Receptor-interacting serine/threonine-protein kinase 1 (RIPK1, Homo sapiens, UniProt Q13546): 98%
